{"data": "Measurements of several laboratories", "note": "Lines come from different studies, so protocols differ. Several values in a cell are separate wells, animals, samples, runs or records. ± gives the spread as reported."}
{"Structure (SMILES)": "CCCCCCCCCCCc1c([N+](=O)[O-])oc2ccc3ccccc3c12", "organism": "Mycobacteroides abscessus", "test": "REMA", "test system": "ATCC 19977", "endpoint": "MIC90", "result": "> 32 µg/mL"}
{"Structure (SMILES)": "CN1CC[C@@]2(C)c3cc(OC(=O)Nc4ccccc4)ccc3N(C)[C@@H]12", "organism": "Toxoplasma gondii", "test": "parasite growth, luciferase reporter", "test system": "HFF, tachyzoite", "setting": "72 h", "endpoint": "EC90", "result": "30000 nM"}
{"Structure (SMILES)": "OC[C@H]1O[C@@H](n2ccc3c(SCc4ccc(F)cc4F)ncnc32)[C@H](O)[C@@H]1O", "organism": "Toxoplasma gondii", "test": "[3H]uracil incorporation", "test system": "human fibroblasts, RH wild type", "setting": "25 µM", "endpoint": "survival", "result": "0%"}
{"Structure (SMILES)": "Cc1c2c(nn1C)CSCc1cc(n(C)n1)CSc1cc(c3ccccc3c1)OCCCc1c(C(=O)O)n(C)c3c-2c(Cl)ccc13", "organism": "Staphylococcus aureus", "test": "label-free quantitative proteomics, item: SAOUHSC_00284 protein", "test system": "SA113", "setting": "concentration not given", "how to read": "relative to: untreated control", "endpoint": "fold change", "result": 0.0361}
{"Structure (SMILES)": "CC(c1cc2ccccc2s1)N(O)C(N)=O (centres unmarked)", "organism": "human coronavirus OC43", "test": "virus-induced cell killing", "test system": "MRC-5", "setting": "screen", "endpoint": "maximum inhibition", "result": "13.5%"}
{"Structure (SMILES)": "Nc1ncnc2c1ncn2[C@@H]1O[C@@H]2COP(=O)(O)O[C@H]3[C@@H](O)[C@H](n4cnc5c(=O)[nH]cnc54)O[C@@H]3COP(=O)(O)O[C@H]2[C@H]1O", "organism": "Zika virus", "test": "downregulated Reactome pathway, RNA sequencing, item: Non-integrin membrane-ECM interactions (R-HSA-3000171)", "test system": "HFF-1", "how to read": "relative to: ZIKV-infected untreated", "endpoint": "fold enrichment", "result": 10.9}
{"Structure (SMILES)": "CO/N=C(\\C(=O)N[C@@H]1C(=O)N2C(C(=O)O)=C(CSC(=O)c3ccco3)CS[C@H]12)c1csc(N)n1", "organism": "Staphylococcus aureus", "test system": "CAAS-2019-CAAS-2019-13 clinical drug-resistant isolate, PBS", "endpoint": "MBC", "result": "16 µg/mL"}
{"Structure (SMILES)": "N#Cc1c(NC(=O)c2cccc3ccccc23)sc2c1CCCC2", "organism": "human coronavirus OC43", "test": "virus-induced cell killing", "test system": "MRC-5", "setting": "maximum over 10 doses", "endpoint": "maximum inhibition", "result": "0%"}
{"Structure (SMILES)": "CN(C)CCCn1cc(C2=C(c3c[nH]c4ccccc34)C(=O)NC2=O)c2ccccc21", "organism": "mouse hepatitis virus", "test": "viral replication", "test system": "nanoluciferase reporter", "setting": "1 µM", "endpoint": "inhibition", "result": "37%"}
{"Structure (SMILES)": "OC[C@H]1O[C@@H](n2ccc3c(SCc4ccc(Cl)cc4Cl)ncnc32)[C@H](O)[C@@H]1O", "organism": "Toxoplasma gondii", "test": "[3H]uracil incorporation", "test system": "human fibroblasts, RH wild type", "setting": "50 µM", "endpoint": "survival", "result": "3.5%"}
{"Structure (SMILES)": "C[C@@H]1C[C@@H]([C@H](O)CC2CC(=O)NC(=O)C2)C(=O)[C@@H](C)C1", "organism": "Mus musculus", "test": "gene silencing, high-content imaging", "test system": "LDR reporter GFP cells", "setting": "30 h, confirmation, mean of two runs", "endpoint": "Emax", "result": "36%"}
{"Structure (SMILES)": "CN(c1ncccc1CNc1nc(Nc2ccc3c(c2)CC(=O)N3)ncc1C(F)(F)F)S(C)(=O)=O", "organism": "mouse hepatitis virus", "test": "viral replication", "test system": "nanoluciferase reporter", "setting": "1 µM", "endpoint": "inhibition", "result": "34%"}
{"Structure (SMILES)": "N=C(N)NCCC[C@H](NC(=O)CN)C(=O)N[C@@H](Cc1c[nH]c2ccccc12)C(=O)N[C@@H](CCCNC(=N)N)C(=O)N[C@@H](Cc1c[nH]c2ccccc12)C(=O)N[C@@H](Cc1c[nH]c2ccccc12)C(=O)N[C@@H](Cc1c[nH]c2ccccc12)C(=O)N[C@@H](CCCNC(=N)N)C(=O)N[C@@H](Cc1c[nH]c2ccccc12)C(=O)N[C@@H](CCCNC(=N)N)C(=O)N[C@@H](Cc1ccccc1)C(N)=O", "organism": "Candida albicans", "test": "broth microdilution", "test system": "SP3903, RPMI 1640-MOPS", "setting": "48 h, 30 °C", "endpoint": "MIC", "result": "8 µM"}
{"Structure (SMILES)": "COc1cnc(OC)n2nc(NS(=O)(=O)c3c(OCC(F)F)cccc3C(F)(F)F)nc12", "organism": "Amaranthus retroflexus", "test system": "greenhouse", "setting": "postemergence, 150 g ai/ha, 21 days", "endpoint": "fresh weight inhibition", "result": "94.2 ± 1.93%"}
{"Structure (SMILES)": "OC[C@H]1O[C@@H](n2ccc3c(SCc4ccc(Cl)c(Cl)c4)ncnc32)[C@H](O)[C@@H]1O", "organism": "Toxoplasma gondii", "test": "[3H]uracil incorporation", "test system": "human fibroblasts, RH wild type", "setting": "25 µM", "endpoint": "survival", "result": "13.4%"}
{"Structure (SMILES)": "COc1c([N+](=O)[O-])oc2ccc3ccccc3c12", "organism": "Salmonella enterica", "test": "REMA", "endpoint": "MIC90", "result": "32 µg/mL"}
{"Structure (SMILES)": "OC[C@H]1NC[C@H](O)[C@@H](O)[C@@H]1O", "organism": "human coronavirus OC43", "test": "virus-induced cell killing", "test system": "MRC-5", "setting": "screen", "endpoint": "maximum inhibition", "result": "11.7%"}
{"Structure (SMILES)": "CC[C@H](C)[C@H](NC(=O)[C@H](C)NC(=O)[C@H](CCCCN)NC(=O)[C@H](CC(C)C)NC(=O)[C@H](C)NC(=O)[C@@H](NC(=O)[C@H](Cc1c[nH]cn1)NC(=O)[C@H](CC(C)C)NC(=O)[C@@H](NC(=O)[C@@H](NC(=O)[C@H](CCCCN)NC(=O)[C@H](C)NC(=O)[C@H](C)NC(=O)[C@H](CO)NC(=O)[C@H](CCCCN)NC(=O)[C@H](Cc1ccccc1)NC(=O)[C@@H](NC(=O)[C@H](CCCCN)NC(=O)[C@H](CC(C)C)NC(=O)[C@H](Cc1ccccc1)NC(=O)[C@H](CO)NC(=O)[C@H](CCCCN)NC(=O)[C@H](Cc1c[nH]c2ccccc12)NC(=O)[C@H](CCCCN)NC(C)=O)[C@@H](C)O)[C@@H](C)O)C(C)C)[C@@H](C)O)C(=O)N[C@@H](CO)C(=O)N[C@@H](CO)C(N)=O", "organism": "Streptococcus pyogenes", "test system": "ATCC 13813", "setting": "1 strain", "endpoint": "MBC range", "result": "16 µg/mL"}
{"Structure (SMILES)": "CN(N=O)C(=O)N[C@H]1C(O)O[C@H](CO)[C@@H](O)[C@@H]1O (mixture of isomers)", "organism": "human coronavirus OC43", "test": "virus-induced cell killing", "test system": "MRC-5", "setting": "maximum over 10 doses", "endpoint": "maximum inhibition", "result": "0%"}
{"Structure (SMILES)": "COc1ccc([C@@]23Oc4cc(OC)cc(OC)c4[C@@]24N=C(C)N[C@@]4(O)[C@H](C(=O)N(C)OC)[C@H]3c2ccccc2)cc1", "organism": "Hepatitis E virus", "test": "viral replication", "test system": "HepG2 HEV-1 replicon, genotype 1", "setting": "24 h", "endpoint": "EC50", "result": "0.64 nM"}
{"Structure (SMILES)": "Cn1c(=O)ccc2ccc(F)c(CCNC[C@H]3CN(c4cnc5c(n4)NC(=O)CO5)C(=O)O3)c21", "organism": "Klebsiella oxytoca", "endpoint": "MIC50", "result": "0.25 µg/mL"}
{"Structure (SMILES)": "C[C@H]1CCC/C=C/[C@@H]2C[C@H](O)C[C@H]2[C@H](O)/C=C/C(=O)O1", "organism": "Toxoplasma gondii", "test": "parasite growth", "test system": "HFF, bradyzoite, glutamine-induced", "endpoint": "EC90", "result": "252 nM"}
{"Structure (SMILES)": "COC(=O)N[C@H](C(=O)N1CCC[C@H]1c1ncc(-c2ccc(-c3ccc(-c4cnc([C@@H]5CCCN5C(=O)[C@@H](NC(=O)OC)C(C)C)[nH]4)cc3)cc2)[nH]1)C(C)C", "organism": "hepatitis C virus", "test": "HCV replicon", "setting": "50% effect level, together with: IFN-α, ratio 1:1", "endpoint": "combination index", "result": "0.72 and 0.73"}
{"Structure (SMILES)": "N[C@@H]1CCCN(c2c(/C=C3\\SC(=O)NC3=O)cccc2-c2ccccc2)C1", "organism": "human coronavirus OC43", "test": "virus-induced cell killing", "test system": "MRC-5", "setting": "screen", "endpoint": "maximum inhibition", "result": "2.64%"}
{"Structure (SMILES)": "Cc1nc2c(NCc3cccc(S(C)(=O)=O)c3)nccn2c1-c1ccc(O)c(F)c1", "organism": "Rhinovirus C", "test": "viral replication, high-content imaging", "test system": "HeLa-CDHR3 C529Y, RV-C15a-mGL", "setting": "3 dpi", "endpoint": "IC50", "result": "14 nM"}
{"Structure (SMILES)": "CCCCc1ccc(CNc2nc(N(C)C)nc(N(C)C)c2/N=N/c2ccc(Cl)cc2)cc1", "organism": "Ostrinia furnacalis", "test": "leaf dipping", "setting": "25 mg/L", "endpoint": "mortality", "result": "56.7%"}
{"Structure (SMILES)": "Cc1c([N+](=O)[O-])oc2ccc3ccccc3c12", "organism": "Mycobacteroides abscessus", "test": "REMA", "test system": "ATCC 19977", "endpoint": "MIC90", "result": "4 µg/mL"}
{"Structure (SMILES)": "CN(NC(=O)CC(=O)NN(C)C(=S)c1ccccc1)C(=S)c1ccccc1", "organism": "human coronavirus OC43", "test": "virus-induced cell killing", "test system": "MRC-5", "setting": "screen", "endpoint": "maximum inhibition", "result": "28.6%"}
{"Structure (SMILES)": "CC[C@H](C)[C@H](NC(=O)[C@H](CCCCN)NC(=O)[C@H](CCCCN)NC(=O)[C@H](Cc1ccccc1)NC(=O)[C@@H](NC(=O)[C@@H](NC(=O)[C@H](CCCNC(=N)N)NC(=O)[C@H](Cc1ccccc1)NC(=O)[C@@H](NC(=O)[C@H](CCCCN)NC(=O)[C@H](CCCCN)NC(=O)[C@@H](N)CCSC)[C@@H](C)CC)C(C)C)[C@@H](C)CC)C(=O)N[C@@H](CC(C)C)C(=O)N[C@@H](CCCCN)C(=O)N[C@@H](CCCNC(=N)N)C(=O)N[C@@H](CC(C)C)C(=O)N[C@H](C(=O)N[C@H](C(=O)O)C(C)C)[C@@H](C)CC", "organism": "Staphylococcus aureus", "test": "broth microdilution", "test system": "MRSA GU-1", "endpoint": "MBC", "result": "8 µg/mL"}
{"Structure (SMILES)": "COc1cc2ccc3oc([N+](=O)[O-])cc3c2cc1OC", "organism": "Mycobacteroides abscessus", "test": "REMA", "test system": "ATCC 19977", "endpoint": "MIC90", "result": "> 32 µg/mL"}
{"Structure (SMILES)": "C=C(C)[C@@H]1CC[C@]2(C(=O)O)CC[C@]3(C)[C@H](CC[C@@H]4[C@@]5(C)CC[C@H](O)C(C)(C)[C@@H]5CC[C@]43C)[C@@H]12", "organism": "human coronavirus OC43", "test": "virus-induced cell killing", "test system": "MRC-5", "setting": "screen", "endpoint": "maximum inhibition", "result": "21.3%"}
{"Structure (SMILES)": "Fc1ccc(C(OCCN2CCN(CCCc3ccccc3)CC2)c2ccc(F)cc2)cc1", "organism": "Toxoplasma gondii", "test": "parasite growth, luciferase reporter", "test system": "HFF, tachyzoite", "setting": "72 h", "endpoint": "EC50", "result": "9450 nM"}
{"Structure (SMILES)": "CC[C@H]1OC(=O)[C@H](C)[C@@H](O[C@H]2C[C@@](C)(OC)[C@@H](O)[C@H](C)O2)[C@H](C)[C@@H](O[C@@H]2O[C@H](C)C[C@H](N(C)C)[C@H]2O)[C@](C)(O)C[C@@H](C)CN(C)[C@H](C)[C@@H](O)[C@]1(C)O", "organism": "Streptococcus pyogenes", "endpoint": "MIC90", "result": "4 µg/mL"}
{"Structure (SMILES)": "C/C=C(/C)C(=O)O[C@H]1C(C)=C2[C@H]([C@@H]1OC(=O)CCCCCCC)[C@@](C)(OC(C)=O)C[C@H](OC(=O)CCC)[C@@]1(O)[C@H]2OC(=O)[C@@]1(C)O", "organism": "human coronavirus OC43", "test": "virus-induced cell killing", "test system": "MRC-5", "setting": "screen", "endpoint": "maximum inhibition", "result": "13.6%"}
{"Structure (SMILES)": "CC(C)NC(=O)N1CC[C@@H](NC2=Nc3cc(F)ccc3N(CC(F)F)c3ccc(Cl)cc32)C1", "organism": "mouse hepatitis virus", "test": "viral replication", "test system": "nanoluciferase reporter", "setting": "1 µM", "endpoint": "inhibition", "result": "-32%"}
{"note": "For quick reference, copied from above:"}
{"Structure (SMILES)": "CO/N=C(\\C(=O)N[C@@H]1C(=O)N2C(C(=O)O)=C(CSC(=O)c3ccco3)CS[C@H]12)c1csc(N)n1", "organism": "Staphylococcus aureus", "test system": "CAAS-2019-CAAS-2019-13 clinical drug-resistant isolate, PBS", "endpoint": "MBC", "result": "16 µg/mL"}
{"Structure (SMILES)": "N#Cc1c(NC(=O)c2cccc3ccccc23)sc2c1CCCC2", "organism": "human coronavirus OC43", "test": "virus-induced cell killing", "test system": "MRC-5", "setting": "maximum over 10 doses", "endpoint": "maximum inhibition", "result": "0%"}
{"Structure (SMILES)": "CN(C)CCCn1cc(C2=C(c3c[nH]c4ccccc34)C(=O)NC2=O)c2ccccc21", "organism": "mouse hepatitis virus", "test": "viral replication", "test system": "nanoluciferase reporter", "setting": "1 µM", "endpoint": "inhibition", "result": "37%"}
